# Published values from different studies.
# ± gives the spread as reported.
# UniProt P49840, sequence (whole entry, looked up): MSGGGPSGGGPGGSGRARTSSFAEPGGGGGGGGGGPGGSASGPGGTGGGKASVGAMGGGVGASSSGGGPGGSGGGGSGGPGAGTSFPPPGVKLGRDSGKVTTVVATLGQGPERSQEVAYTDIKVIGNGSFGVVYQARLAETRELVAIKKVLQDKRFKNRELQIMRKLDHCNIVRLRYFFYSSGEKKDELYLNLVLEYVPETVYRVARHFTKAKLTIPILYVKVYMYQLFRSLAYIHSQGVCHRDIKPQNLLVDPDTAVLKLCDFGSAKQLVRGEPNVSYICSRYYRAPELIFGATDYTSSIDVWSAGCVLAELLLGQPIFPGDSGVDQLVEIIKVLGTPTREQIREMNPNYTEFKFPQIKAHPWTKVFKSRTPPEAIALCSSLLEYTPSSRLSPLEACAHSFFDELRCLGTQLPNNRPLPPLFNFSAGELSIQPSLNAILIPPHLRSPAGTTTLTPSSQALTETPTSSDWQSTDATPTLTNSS
# UniProt Q9UBE8, sequence (whole entry, looked up): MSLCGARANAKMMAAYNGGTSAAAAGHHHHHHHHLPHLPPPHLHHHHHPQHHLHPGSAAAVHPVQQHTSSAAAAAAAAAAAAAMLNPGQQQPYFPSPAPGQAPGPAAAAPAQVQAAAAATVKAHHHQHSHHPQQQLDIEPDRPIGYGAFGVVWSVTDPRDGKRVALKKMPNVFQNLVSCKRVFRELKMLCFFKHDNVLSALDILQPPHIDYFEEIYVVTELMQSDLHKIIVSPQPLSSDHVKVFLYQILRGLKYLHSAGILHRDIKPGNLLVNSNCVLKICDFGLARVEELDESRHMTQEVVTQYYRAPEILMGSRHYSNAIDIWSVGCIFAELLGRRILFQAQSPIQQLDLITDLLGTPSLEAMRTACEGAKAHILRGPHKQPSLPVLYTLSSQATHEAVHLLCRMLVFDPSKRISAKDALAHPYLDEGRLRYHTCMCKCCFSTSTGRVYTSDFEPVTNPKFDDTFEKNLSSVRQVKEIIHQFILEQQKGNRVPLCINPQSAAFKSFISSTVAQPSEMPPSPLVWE
# UniProt O75914, sequence (whole entry, looked up): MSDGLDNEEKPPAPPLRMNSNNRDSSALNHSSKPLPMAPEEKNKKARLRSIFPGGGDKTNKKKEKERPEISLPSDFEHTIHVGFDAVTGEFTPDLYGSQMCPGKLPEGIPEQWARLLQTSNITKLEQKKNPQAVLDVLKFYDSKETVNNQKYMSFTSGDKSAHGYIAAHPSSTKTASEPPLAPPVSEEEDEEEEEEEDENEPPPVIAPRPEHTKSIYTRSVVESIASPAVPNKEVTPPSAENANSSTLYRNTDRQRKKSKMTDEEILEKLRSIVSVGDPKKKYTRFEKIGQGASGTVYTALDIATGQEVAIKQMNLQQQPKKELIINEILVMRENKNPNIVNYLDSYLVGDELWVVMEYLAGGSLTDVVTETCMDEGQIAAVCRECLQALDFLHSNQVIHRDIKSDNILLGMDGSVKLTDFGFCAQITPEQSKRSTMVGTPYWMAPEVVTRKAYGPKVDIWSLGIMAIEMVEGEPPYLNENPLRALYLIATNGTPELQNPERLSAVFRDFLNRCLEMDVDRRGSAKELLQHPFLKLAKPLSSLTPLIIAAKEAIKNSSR
# UniProt P19525, sequence (whole entry, looked up): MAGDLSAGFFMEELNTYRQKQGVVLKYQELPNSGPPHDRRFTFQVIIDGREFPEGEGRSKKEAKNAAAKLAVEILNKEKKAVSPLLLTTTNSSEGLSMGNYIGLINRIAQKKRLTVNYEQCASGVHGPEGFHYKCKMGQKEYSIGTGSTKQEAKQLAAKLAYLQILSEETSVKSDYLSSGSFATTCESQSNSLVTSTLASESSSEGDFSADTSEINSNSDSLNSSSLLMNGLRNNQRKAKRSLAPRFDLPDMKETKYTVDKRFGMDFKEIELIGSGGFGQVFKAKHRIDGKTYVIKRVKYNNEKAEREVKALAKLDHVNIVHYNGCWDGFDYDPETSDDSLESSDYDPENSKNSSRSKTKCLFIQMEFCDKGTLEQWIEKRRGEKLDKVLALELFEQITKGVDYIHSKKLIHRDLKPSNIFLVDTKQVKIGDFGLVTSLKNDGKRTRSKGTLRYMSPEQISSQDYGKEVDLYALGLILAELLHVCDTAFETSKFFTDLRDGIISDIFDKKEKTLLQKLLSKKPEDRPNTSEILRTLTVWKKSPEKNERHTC
# UniProt Q70CQ1, sequence (whole entry, looked up): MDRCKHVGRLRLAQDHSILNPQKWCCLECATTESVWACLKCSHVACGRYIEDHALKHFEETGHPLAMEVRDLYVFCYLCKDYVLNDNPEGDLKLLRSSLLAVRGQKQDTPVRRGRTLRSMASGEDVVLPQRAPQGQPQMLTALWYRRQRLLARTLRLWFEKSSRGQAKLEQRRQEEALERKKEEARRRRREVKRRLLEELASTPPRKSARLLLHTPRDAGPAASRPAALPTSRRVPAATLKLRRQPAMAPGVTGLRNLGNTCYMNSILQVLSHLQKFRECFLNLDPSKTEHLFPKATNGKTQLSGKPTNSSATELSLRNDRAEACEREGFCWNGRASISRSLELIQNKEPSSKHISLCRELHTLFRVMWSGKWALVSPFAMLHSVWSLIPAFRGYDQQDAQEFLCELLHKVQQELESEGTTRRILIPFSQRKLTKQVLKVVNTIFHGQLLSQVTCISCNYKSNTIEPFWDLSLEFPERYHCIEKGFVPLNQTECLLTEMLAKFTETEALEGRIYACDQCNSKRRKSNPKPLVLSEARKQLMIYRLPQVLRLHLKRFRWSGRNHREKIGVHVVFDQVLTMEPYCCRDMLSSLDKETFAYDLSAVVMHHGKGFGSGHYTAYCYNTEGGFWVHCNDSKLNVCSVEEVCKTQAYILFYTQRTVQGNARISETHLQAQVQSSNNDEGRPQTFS
# UniProt P42337, sequence (whole entry, unmodified, looked up): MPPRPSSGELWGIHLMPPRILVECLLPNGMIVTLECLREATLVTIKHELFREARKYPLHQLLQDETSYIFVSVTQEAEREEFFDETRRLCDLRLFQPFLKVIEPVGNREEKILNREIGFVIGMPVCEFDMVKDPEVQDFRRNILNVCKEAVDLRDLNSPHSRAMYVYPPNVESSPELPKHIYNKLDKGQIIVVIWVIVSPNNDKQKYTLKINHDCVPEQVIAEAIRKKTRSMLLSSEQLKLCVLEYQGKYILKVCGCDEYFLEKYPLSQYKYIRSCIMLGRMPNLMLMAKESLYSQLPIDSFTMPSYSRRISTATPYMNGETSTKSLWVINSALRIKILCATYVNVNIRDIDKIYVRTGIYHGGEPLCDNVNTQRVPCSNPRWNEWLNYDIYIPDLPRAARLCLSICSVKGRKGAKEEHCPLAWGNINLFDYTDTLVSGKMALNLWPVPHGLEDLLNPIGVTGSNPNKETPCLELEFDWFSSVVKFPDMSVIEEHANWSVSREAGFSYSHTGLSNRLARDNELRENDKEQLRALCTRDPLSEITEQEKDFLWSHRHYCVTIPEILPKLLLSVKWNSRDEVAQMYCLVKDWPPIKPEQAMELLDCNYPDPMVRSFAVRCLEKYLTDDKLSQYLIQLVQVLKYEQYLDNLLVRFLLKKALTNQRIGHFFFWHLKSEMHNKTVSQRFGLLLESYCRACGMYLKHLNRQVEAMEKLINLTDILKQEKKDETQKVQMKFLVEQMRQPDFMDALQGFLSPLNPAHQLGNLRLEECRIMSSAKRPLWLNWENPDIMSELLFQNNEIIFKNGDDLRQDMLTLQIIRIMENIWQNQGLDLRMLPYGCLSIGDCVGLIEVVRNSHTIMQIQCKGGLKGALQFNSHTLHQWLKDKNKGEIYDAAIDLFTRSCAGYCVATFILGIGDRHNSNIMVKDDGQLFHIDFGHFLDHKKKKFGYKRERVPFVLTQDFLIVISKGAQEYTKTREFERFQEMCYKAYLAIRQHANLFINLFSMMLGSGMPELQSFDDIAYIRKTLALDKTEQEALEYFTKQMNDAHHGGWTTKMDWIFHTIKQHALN
# UniProt Q13572, sequence (whole entry, looked up): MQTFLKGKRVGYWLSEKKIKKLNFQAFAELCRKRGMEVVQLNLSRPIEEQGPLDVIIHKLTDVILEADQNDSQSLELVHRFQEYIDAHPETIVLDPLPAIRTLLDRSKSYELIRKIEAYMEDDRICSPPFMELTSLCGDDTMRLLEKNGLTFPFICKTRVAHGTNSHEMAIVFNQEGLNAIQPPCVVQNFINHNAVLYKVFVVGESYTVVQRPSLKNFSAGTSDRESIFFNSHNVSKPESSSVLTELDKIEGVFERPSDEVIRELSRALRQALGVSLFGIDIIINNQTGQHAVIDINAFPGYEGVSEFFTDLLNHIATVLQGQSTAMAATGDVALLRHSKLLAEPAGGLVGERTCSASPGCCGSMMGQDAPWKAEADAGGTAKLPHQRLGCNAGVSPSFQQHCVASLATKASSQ
# UniProt P45983, sequence (whole entry, looked up): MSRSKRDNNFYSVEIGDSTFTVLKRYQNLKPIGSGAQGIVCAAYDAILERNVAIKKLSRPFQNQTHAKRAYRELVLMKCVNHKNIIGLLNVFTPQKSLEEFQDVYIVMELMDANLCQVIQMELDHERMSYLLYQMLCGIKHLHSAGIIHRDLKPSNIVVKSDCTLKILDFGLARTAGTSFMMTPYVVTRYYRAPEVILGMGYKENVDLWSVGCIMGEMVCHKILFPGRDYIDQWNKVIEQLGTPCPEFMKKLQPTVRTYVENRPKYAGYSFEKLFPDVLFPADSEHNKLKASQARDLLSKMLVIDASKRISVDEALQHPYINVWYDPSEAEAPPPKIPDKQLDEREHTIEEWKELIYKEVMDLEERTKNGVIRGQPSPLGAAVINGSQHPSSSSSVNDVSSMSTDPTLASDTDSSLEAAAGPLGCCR
Compound,target,assay,setting,how to read,endpoint,value
O=C(O)c1ccc(Nc2ncc3c(n2)-c2ccc(Cl)cc2C(c2c(F)cccc2F)=NC3)cc1,SGK2(h),kinase activity,1 µM,,remaining activity,100%
C=CC(=O)N1CCC[C@@H](n2nc(-c3ccc(Oc4ccccc4)cc3)c3c(N)ncnc32)C1,"EIF2AK2 (Homo sapiens, UniProt P19525)",,1 µM,,remaining activity,185%
COc1cc(N2CCN(C)CC2)ccc1Nc1nc(N)n(C(=O)NCc2c(Cl)cccc2Cl)n1,"SYK (Homo sapiens, UniProt P43405)",enzyme activity,10 µM,baseline: control,remaining activity,30%
Cc1ccc(C(=O)O)cc1S(=O)(=O)Nc1cccc(C(=O)CCC(=O)O)c1,"Ubiquitin carboxyl-terminal hydrolase 20, ZnF-UBD domain (USP20, Homo sapiens, UniProt Q9Y2K6)",,,,Kd,> 1000 µM
CN(C)CC#Cc1ccc2[nH]c3c(c2c1)-c1nc(N)ncc1CCC3,"PAK3 (Homo sapiens, UniProt O75914)","kinase activity, inhibitor, radiometric","1 µM, together with: ATP at Km",,remaining activity,81%
COc1cc(F)ccc1-c1ncnc(Nc2cccc(C[S@](C)(=N)=O)c2)n1,"NLK (Homo sapiens, UniProt Q9UBE8)",kinase activity,"10 µM, together with: 10 µM ATP",,remaining activity,94%
Nc1nc(Nc2ccccc2)sc1C(=O)c1c(F)cccc1F,AMP-activated protein kinase,"enzyme activity, inhibitor",10 µM,,remaining activity,67%
COc1cc(-c2cncc3c2CN(C)Cc2cc(N4CCNCC4)ccc2-3)cc(OC)c1OC,"BMPR2 (Homo sapiens, UniProt Q13873)",kinase activity,"1 µM, human enzyme, together with: ATP 10 µM",baseline: DMSO control,remaining activity,104%
COc1cc(Nc2ncc3c(n2)-c2ccc(Cl)cc2C(c2c(F)cccc2OC)=NC3)ccc1C(=O)O,TEK,kinase activity,1 µM,,remaining activity,20%
CNCC(=O)O,"Sodium- and chloride-dependent glycine transporter 2 (Homo sapiens, UniProt Q9Y345)","glycine uptake, inhibitor, [3H]glycine uptake","3000 µM, log concentration 3, together with: [3H]glycine",baseline: no inhibitor,remaining activity,99.1%
Cc1cc(NC(=O)c2cccc(NC(=O)/C=C/CN(C)C)c2)ccc1Nc1nccc(-c2cccnc2)n1,"MAPK8 (Homo sapiens, UniProt P45983)","enzyme activity, inhibitor","0.1829 µM, 6 h, unit not given, together with: GSH 10 mM pre-incubation",baseline: vehicle,remaining activity,0.868
O=C1NC(=O)/C(=C/c2ccc(-c3ccc(F)cc3O)o2)S1,"TTK (Homo sapiens, UniProt P33981)",enzyme activity,10 µM,,remaining activity,56%
O=C(NC1CCC1)c1ccc2nc(-c3cccc(NS(=O)(=O)NCCN4CCCCC4)c3)cn2c1,"GSK3A (Homo sapiens, UniProt P49840)",enzyme activity,10 µM,,remaining activity,90%
Cc1ccc(NC(=O)c2ccc(C)c(C(F)(F)F)c2)cc1C#Cc1nn(C2CCC(O)CC2)c2ncnc(N)c12 (centres unmarked),"Phosphatidylinositol 4,5-bisphosphate 3-kinase catalytic subunit alpha isoform, with p85 alpha (Pik3ca, Mus musculus, UniProt P42337, E542K)","enzyme activity, inhibitor","10 µM, p110a(E542K)/p85a)(m mouse, together with: ATP 10 µM",,remaining activity,92%
Nc1ncnc2c1cnn2C1CCCCC1,"Inositol-tetrakisphosphate 1-kinase (Homo sapiens, UniProt Q13572)","enzyme activity, inhibitor, radiometric kinase","10 µM, together with: ATP 1 mM",baseline: control,remaining activity,~100%
O=C(O)CCn1cccn1,"Ubiquitin carboxyl-terminal hydrolase 49, ZnF-UBD domain (USP49, Homo sapiens, UniProt Q70CQ1)",,,,Kd,56 µM
C=CC(=O)N1CCC([C@@H]2CCNc3c(C(N)=O)c(-c4ccc(Oc5ccccc5)cc4)nn32)CC1,"CSK (Homo sapiens, UniProt P41240)","kinase activity, inhibitor, HotSpot radiometric","100 nM, together with: ATP 10 µM",,remaining activity,88.9 ± 0.4%

# Some of these lines once more:
Compound,target,assay,setting,how to read,endpoint,value
CN(C)CC#Cc1ccc2[nH]c3c(c2c1)-c1nc(N)ncc1CCC3,"PAK3 (Homo sapiens, UniProt O75914)","kinase activity, inhibitor, radiometric","1 µM, together with: ATP at Km",,remaining activity,81%
